Published values of several laboratories.
Lines come from different studies, so protocols differ. Several values in a cell are separate wells, animals, samples, runs or records. ± gives the spread as reported.
Chain of UniProt Q01718 (whole entry, looked up): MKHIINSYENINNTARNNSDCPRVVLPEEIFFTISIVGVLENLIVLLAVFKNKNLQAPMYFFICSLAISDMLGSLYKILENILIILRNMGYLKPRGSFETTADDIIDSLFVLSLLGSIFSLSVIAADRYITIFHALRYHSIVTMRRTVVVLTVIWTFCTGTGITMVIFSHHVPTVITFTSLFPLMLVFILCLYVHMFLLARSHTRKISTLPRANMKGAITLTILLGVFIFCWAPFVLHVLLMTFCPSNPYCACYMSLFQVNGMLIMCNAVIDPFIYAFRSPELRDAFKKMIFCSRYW
Chain of UniProt P05771 (whole entry, looked up): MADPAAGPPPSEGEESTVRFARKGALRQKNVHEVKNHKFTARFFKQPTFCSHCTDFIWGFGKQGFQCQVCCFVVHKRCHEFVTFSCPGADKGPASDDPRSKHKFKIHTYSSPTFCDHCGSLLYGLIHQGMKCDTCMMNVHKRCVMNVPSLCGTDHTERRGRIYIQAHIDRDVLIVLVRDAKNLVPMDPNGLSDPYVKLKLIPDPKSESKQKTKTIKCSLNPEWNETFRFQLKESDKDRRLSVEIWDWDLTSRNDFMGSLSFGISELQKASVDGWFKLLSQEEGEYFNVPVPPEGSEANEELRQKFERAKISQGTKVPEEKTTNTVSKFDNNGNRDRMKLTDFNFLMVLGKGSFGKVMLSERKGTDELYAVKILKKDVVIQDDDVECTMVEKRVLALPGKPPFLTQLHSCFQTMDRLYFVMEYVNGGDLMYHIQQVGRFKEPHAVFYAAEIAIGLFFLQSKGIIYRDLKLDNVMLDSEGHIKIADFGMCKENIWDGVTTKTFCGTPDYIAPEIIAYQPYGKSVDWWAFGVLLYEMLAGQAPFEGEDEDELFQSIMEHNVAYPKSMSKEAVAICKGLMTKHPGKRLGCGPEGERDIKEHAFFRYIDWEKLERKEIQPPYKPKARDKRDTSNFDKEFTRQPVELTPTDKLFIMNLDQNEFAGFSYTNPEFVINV
Chain of UniProt O14733 (whole entry, looked up): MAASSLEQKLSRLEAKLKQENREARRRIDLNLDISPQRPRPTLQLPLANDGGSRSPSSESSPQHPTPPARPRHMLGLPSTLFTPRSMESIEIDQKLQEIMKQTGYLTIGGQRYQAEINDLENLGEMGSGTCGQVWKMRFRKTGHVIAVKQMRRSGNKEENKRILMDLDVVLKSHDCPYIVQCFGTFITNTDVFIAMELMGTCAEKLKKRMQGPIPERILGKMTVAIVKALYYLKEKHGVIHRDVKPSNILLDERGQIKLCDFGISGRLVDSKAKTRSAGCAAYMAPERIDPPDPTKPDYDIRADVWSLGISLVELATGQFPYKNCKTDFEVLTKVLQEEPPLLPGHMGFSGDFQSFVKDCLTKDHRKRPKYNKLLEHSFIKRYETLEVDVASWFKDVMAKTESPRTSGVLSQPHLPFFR

| Compound | tested on | assay | system | conditions | how to read | endpoint | value |
| --- | --- | --- | --- | --- | --- | --- | --- |
| C[n+]1ccc(Nc2ccc(O)cc2)c2ccc(Cl)cc21.[I-] | Dengue virus type 2 | viral replication, Rluc reporter replicon | BHK-21 DENV2 replicon cells | 50 µM, 24 h | – | inhibition | 20.7 ± 2.9% |
| NCCCO.O=C(O)C(Cl)Cl | Eleusine indica | – | – | 15 mg/mL, 21 days, post-emergence, greenhouse | – | herbicidal inhibition | 10% |
| CCCCCCCCCCCC(=O)C(C)C(=O)N1CCC[C@H]1C(=O)NC(C)(C)C(=O)NC(C)(C)C(=O)NC(C)(C)C(=O)N[C@](C)(CC)C(=O)NCCC(=O)N[C@@H](C)C(=O)N[C@](C)(CC)C(=O)N[C@@H](C)C(=O)N[C@@H](CC(C)C)C(=O)N[C@](C)(CC)C(=O)NCCC(=O)N[C@@H](C)C(=O)N[C@](C)(CC)C(=O)NCCC(=O)N[C@@H](C)C(=O)NC(C)(C)C(=O)NC(C)(C)C(=O)NC(C)(C)C(=O)N[C@@H](C)C(=O)N[C@@H](CC(=O)O)C(=O)O (stereo partly drawn) | chitin | pull-down, LC-MS | – | 1 h, pH 7.0, 30 °C, with: chitin 1 mg/mL | higher = more bound | bound compound (MS peak area) | 0 a.u. |
| CC1(C)CC(=O)C2=C(C1)Oc1ccccc1C2C1C(=O)NC(=O)NC1=O (stereo not drawn) | 3T3-L1 preadipocytes | adipogenesis, Oil Red O staining | – | IC20, 14 days | – | mean lipid content | 0.823 OD492 |
| CCN(CC)Cc1cc(Nc2c(C3CCCC3)c(C)nc3cc(Cl)ccc23)ccc1O | Dengue virus type 2 | viral replication, Rluc reporter replicon | BHK-21 DENV2 replicon cells | 50 µM, 24 h | – | inhibition | 100% |
| CC(=O)N[C@@H](CC(C)C)C(=O)N[C@H](C(=O)N[C@@H](Cc1ccccc1)C(=O)N[C@]1(C)CCCCCC/C=C/CCC[C@@](C)(C(=O)N[C@@H](C)C(=O)N[C@@H](C)C(=O)N[C@@H](C)C(=O)N[C@@H](C)C(=O)N[C@@H](C)C(=O)N[C@H](C)C(N)=O)NC(=O)[C@H](CC(C)C)NC(=O)[C@H](CCCCNC(=O)CCNC(=O)C[C@@H]2N=C(c3ccc(Cl)cc3)c3c(sc(C)c3C)-n3c(C)nnc32)NC(=O)[C@H](C)NC(=O)[C@H](Cc2c[nH]c3ccccc23)NC(=O)[C@H](Cc2ccc(O)cc2)NC(=O)[C@H](C)NC1=O)[C@@H](C)O | – | equilibrium dialysis | mouse plasma | 2 µM, 6 h, 37 °C | – | fraction unbound | 0.0271 |
| Cc1cc(C(=O)Nc2nc3cccc(C)c3n2[C@H]2CCCCN(C(=O)/C=C/CN(C)C)C2)ccn1 | Trypanosoma brucei | – | CLK1 C215S overexpressing | 50 x EC50 | – | survival | 99.5% and 81.5% and 73.5% |
| COc1cc2c(cc1NC(=O)c1cncn1C)C[C@H]1[C@H]3CCCC[C@@]23CCN1C | – | intraperitoneal glucose tolerance test | C57BL/6 mouse | dose not given, 30 min, with: glucose 50 µg/g i.p. | – | plasma insulin | increased |
| CC(C)(C)C(=O)OCOP(=O)(OCOC(=O)C(C)(C)C)C1CCCN(O)C1=O (stereo not drawn) | K562 | – | – | – | – | log LC50 | > -4 log M |
| CC1CCC2C(C)C(CCCOC(=O)C(Cc3ccc(N(CCCl)CCCl)cc3)NC(=O)OC(C)(C)C)OC3OC4(C)CCC1C32OO4 (stereo not drawn) | OVCAR-3 | cell growth or viability, CCK-8 | – | – | – | IC50 | 1.6 µM |
| CC[C@H](C)[C@H](NC(=O)[C@H](CO)NC(=O)[C@H](Cc1ccc(O)cc1)NC(=O)[C@H](Cc1ccc(O)cc1)NC(=O)[C@H](CC(N)=O)NC(=O)CNC(=O)[C@H](CO)NC(=O)[C@H](Cc1ccc(O)cc1)NC(=O)[C@H](CO)NC(=O)[C@H](CO)NC(=O)[C@H](CC(N)=O)NC(=O)COCCOCCNC(=O)CN1CCN(CC(=O)O)CCN(CC(=O)O)CCN(CC(=O)O)CC1)C(=O)N[C@@H](CC(C)C)C(N)=O [copper-64 labelled] | – | dynamic PET | tamoxifen-induced PDAC mouse model, metastases | 1.4 min, CLDN4-expressing tumours | – | maximum metastasis uptake | 27 %IA/cc |
| COc1ccccc1-c1n[nH]c2nc(N[C@H]3CC[C@H](NS(=O)(=O)CC(C)C)CC3)ncc12 | – | bead binding, competition bead pull-down, measured: LMJF.01.0320 | Leishmania donovani extract | 10 µM | baseline: vehicle | relative abundance | 1.03 |
| Cc1cc(Oc2nc(N3CC[C@@H](c4ccncc4)C3)ncc2F)[nH]n1 | Mycobacterium tuberculosis | OD | H37Rv PurF CRISPRi knockdown | 1.5e-05 µM, with: anhydrotetracycline low | – | normalised growth | 98% and 96% and 100% |
| N[C@H](C(=O)N1CCCC1)C1CCN(c2nccc3c(-c4ncc(Cl)cc4Cl)cccc23)CC1 | Adrenocorticotropic hormone receptor (MC2R, Homo sapiens, UniProt Q01718) | functional response, antagonist | – | 10 µM | – | inhibition | 10% |
| CCCC[C@H](NC(=O)CN1CCC(NC(=O)CN2CCN(CC(N)=O)CCN(CC(N)=O)CCN(CC(N)=O)CC2)CC1)C(=O)N[C@H]1CC(=O)NCCCC[C@@H](C(N)=O)NC(=O)[C@H](Cc2c[nH]c3ccccc23)NC(=O)[C@H](CCCNC(=N)N)NC(=O)[C@@H](Cc2ccccc2)NC(=O)[C@H](Cc2c[nH]cn2)NC1=O [lead-203 labelled] | – | SPECT/CT SUVmean | C57BL/6J mice B16-F10 tumour-bearing, liver | dose not given, 2 h | baseline: thiourea analogue over amide | liver uptake reduction | 3.7 fold |
| CN1C(=O)C(C2C3=C(CC(C)(C)CC3=O)Oc3ccc(Cl)cc32)C(=O)N(C)C1=O (stereo not drawn) | 3T3-L1 preadipocytes | adipogenesis, Oil Red O staining | – | IC20, 14 days, single replicate | – | lipid content | 0.692 OD492 and 0.693 OD492 and 0.664 OD492 |
| Nc1ncc(-c2cc(-c3cnn(CC(F)(F)F)c3)ncc2F)nc1C(=O)NC1CNCC(F)C1 (stereo not drawn) | ABL1(Q252H)-phosphorylated | KINOMEscan competition binding | – | 1 µM | baseline: DMSO control | remaining binding | 82% |
| O=C1NC2(CC2)COc2ncc(F)cc2[C@H]2COCCN2c2ccn3ncc1c3n2 | – | – | Sprague-Dawley rat, female, kidneys | oral, 10 mg/kg/day, 4 weeks dosing, end of recovery | – | organ-to-body weight ratio | 0.675 ± 0.056% |
| CN(C)[C@H]1C[C@@]23CC[C@@]4(O2)C(=CC[C@]2(C)[C@@H](c5ccc6ccncc6c5)CC[C@H]24)C=C3[C@@H](O)[C@@H]1O | Dual specificity mitogen-activated protein kinase kinase 7 (MAP2K7, Homo sapiens, UniProt O14733) | ATP probe labelling, inhibitor, KiNativ profiling | – | 0.1 µM | – | inhibition | 9.7% |
| CC(C)[C@H]1NC(=O)C[C@H]2/C=C/CCSSC[C@@H](NC1=O)C(=O)N[C@H](Cc1cccc3ccccc13)C(=O)NCC(=O)O2 | Protein kinase C beta type, isoform beta-II (PRKCB, Homo sapiens, UniProt P05771) | – | – | 10 µM | – | inhibition | -2.4% |
| COc1ccccc1-c1n[nH]c2nc(NC3CCN(C(=O)Cc4ccc(F)cc4F)CC3)ncc12 | – | bead binding, competition bead pull-down, measured: LINJ.29.1250 | Leishmania donovani extract | 10 µM | baseline: vehicle | relative abundance | 1.02 |
| CN1C(=O)C(C2C3=C(CC(C)(C)CC3=O)Oc3ccc([N+](=O)[O-])cc32)C(=O)N(C)C1=O (stereo not drawn) | 3T3-L1 preadipocytes | adipogenesis, Oil Red O staining | – | IC20, 14 days | – | mean lipid content | 0.643 OD492 |
| C[Si](C)(C)C[C@@H](CN)CC(=O)O | sodium channel site 2, rat | binding | – | 75 µM | – | inhibition | -19% |
| CC[C@@H]1C(=O)N(C)c2cnc(Nc3ccc(C(=O)NCCCC[C@H](NC(=O)[C@@H](NC(=O)[C@H](CO)NC(=O)[C@H](Cc4cncn4CCCCCCCCc4ccccc4)NC(=O)[C@H](CC(C)C)NC(=O)[C@@H]4CCCN4C(C)=O)[C@@H](C)CP(=O)(O)O)C(N)=O)cc3OC)nc2N1C1CCCC1 | Caco-2 | – | – | 10 µM, 2 h | – | Papp B-A | 0.0129 ×10⁻⁶ cm/s |
| CC(C)[C@@H]1NC(=O)[C@@H]2CCCN2C(=O)[C@@H](C(C)C)NC(=O)[C@H]2CCCN2C(=O)[C@H](C(C)C)NC(=O)[C@@H]2CCCN2C(=O)[C@@H](C(C)C)NC(=O)[C@H]2CCCN2C(=O)[C@H](C(C)C)NC(=O)[C@@H]2CCCN2C(=O)[C@@H](C(C)C)NC(=O)[C@H]2CCCN2C1=O | – | – | sheep lipid bilayer | 10 µM, pH 7.4, 23 °C, with: 0.1 M K+ vs Rb chloride | – | bi-ionic potential | 2 mV |
| CC[C@H](C)[C@@H]([C@@H](CC(=O)N1CCC[C@H]1[C@H](OC)[C@@H](C)C(=O)N[C@H](C)[C@@H](O)c1ccccc1)OC)N(C)C(=O)[C@@H](NC(=O)[C@H](C(C)C)N(C)C(=O)OCc1ccc(NC(=O)[C@H](CCCNC(N)=O)NC(=O)[C@@H](NC(=O)CCCCCN2C(=O)CC(SC[C@H](NC(=O)[C@H](CC(=O)O)NC(=O)[C@H](Cc3ccc(O)cc3)NC(=O)[C@H](Cc3c[nH]c4ccccc34)NC(=O)[C@@H](N)CCCNC(=N)N)C(=O)O)C2=O)C(C)C)cc1)C(C)C (stereo partly drawn) | – | – | C57BL/6 mouse, healthy, lung | intraperitoneal, 2.5 mg/kg, 0.167 h | – | concentration | not detected |
| CC(C)CC(C(=O)N1CC2(CC1C#N)C(=O)Nc1ccccc12)N(C)C(=O)c1cc2c(F)cc(F)c(F)c2[nH]1 (stereo not drawn) | human coronavirus 229E | viral replication | MRC-5 | 0.003125 µM | – | inhibition | 87.8% |

A few entries again:
| Compound | tested on | assay | system | conditions | how to read | endpoint | value |
| --- | --- | --- | --- | --- | --- | --- | --- |
| CC(C)[C@H]1NC(=O)C[C@H]2/C=C/CCSSC[C@@H](NC1=O)C(=O)N[C@H](Cc1cccc3ccccc13)C(=O)NCC(=O)O2 | Protein kinase C beta type, isoform beta-II (PRKCB, Homo sapiens, UniProt P05771) | – | – | 10 µM | – | inhibition | -2.4% |
| CN(C)[C@H]1C[C@@]23CC[C@@]4(O2)C(=CC[C@]2(C)[C@@H](c5ccc6ccncc6c5)CC[C@H]24)C=C3[C@@H](O)[C@@H]1O | Dual specificity mitogen-activated protein kinase kinase 7 (MAP2K7, Homo sapiens, UniProt O14733) | ATP probe labelling, inhibitor, KiNativ profiling | – | 0.1 µM | – | inhibition | 9.7% |
